Experimental data collected from several papers.
Each numbered part is a random draw from the data of one study; scales do not carry over between parts. Substitutions count along the parent as printed.
UniProt Q00536, sequence (whole entry, looked up): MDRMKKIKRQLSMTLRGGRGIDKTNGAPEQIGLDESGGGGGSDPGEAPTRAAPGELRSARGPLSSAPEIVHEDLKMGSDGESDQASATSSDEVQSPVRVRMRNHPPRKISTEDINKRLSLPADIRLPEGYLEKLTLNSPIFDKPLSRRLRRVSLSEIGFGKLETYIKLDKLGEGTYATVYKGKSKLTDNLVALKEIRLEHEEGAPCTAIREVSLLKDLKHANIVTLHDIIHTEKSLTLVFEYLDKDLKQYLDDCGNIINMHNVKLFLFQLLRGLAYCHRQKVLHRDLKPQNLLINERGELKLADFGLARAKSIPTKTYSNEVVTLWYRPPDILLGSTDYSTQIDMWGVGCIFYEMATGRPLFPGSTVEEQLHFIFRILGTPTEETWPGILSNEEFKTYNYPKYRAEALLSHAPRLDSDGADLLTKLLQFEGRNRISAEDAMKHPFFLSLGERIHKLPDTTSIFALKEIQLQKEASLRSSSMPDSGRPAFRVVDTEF

Sample 1
Target: ABI1, truncated, D143A, DHFR fusion (Arabidopsis thaliana)
Method: DHFR PCA, deep sequencing
Medium: yeast
Notes: methotrexate growth selection, single substitutions
Together with: (+)-ABA 4.8 µM
Baseline: wild-type fitted maximum
Reading: higher = stronger binding
Parent: PYL1, truncated, DHFR fusion (Arabidopsis thaliana); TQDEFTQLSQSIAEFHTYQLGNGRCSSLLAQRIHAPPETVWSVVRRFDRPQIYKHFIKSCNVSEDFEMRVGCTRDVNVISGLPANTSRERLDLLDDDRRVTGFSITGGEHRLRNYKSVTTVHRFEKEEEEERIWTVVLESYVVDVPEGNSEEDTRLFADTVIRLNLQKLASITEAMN; partner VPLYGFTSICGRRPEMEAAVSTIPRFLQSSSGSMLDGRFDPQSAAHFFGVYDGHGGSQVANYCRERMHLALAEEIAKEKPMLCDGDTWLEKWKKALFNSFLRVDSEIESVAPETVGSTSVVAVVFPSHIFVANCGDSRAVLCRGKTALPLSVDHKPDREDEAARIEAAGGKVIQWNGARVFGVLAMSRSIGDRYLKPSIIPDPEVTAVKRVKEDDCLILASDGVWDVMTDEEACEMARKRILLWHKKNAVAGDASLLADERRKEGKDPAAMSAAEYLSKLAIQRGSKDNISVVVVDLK
Change | relative binding score [%]
E89P | -5.56
L164P | -24.3
H16R | 9.56
F66L | 39.8
S63Y | 30.2
T1N | 73.1
R69T | 70
V43L | 61.1

Sample 2
Target: Centromere-binding protein 1, full length, His-tagged (CBF1, Saccharomyces cerevisiae, UniProt P17106, residues 1-351)
UniProt P17106, sequence (whole entry, looked up): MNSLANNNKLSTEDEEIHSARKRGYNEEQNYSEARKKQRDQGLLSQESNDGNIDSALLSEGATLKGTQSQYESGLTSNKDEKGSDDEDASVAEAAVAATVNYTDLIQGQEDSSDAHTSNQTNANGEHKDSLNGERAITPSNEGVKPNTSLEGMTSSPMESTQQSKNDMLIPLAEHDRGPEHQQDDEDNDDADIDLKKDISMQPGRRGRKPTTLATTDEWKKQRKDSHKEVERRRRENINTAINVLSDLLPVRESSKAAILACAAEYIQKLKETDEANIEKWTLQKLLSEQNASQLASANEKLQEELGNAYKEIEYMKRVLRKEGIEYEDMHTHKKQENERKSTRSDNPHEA
Method: competition protein-binding microarray
Molecule type: double-stranded DNA, one strand shown
Medium: in vitro
Tested at: 2 µM
Notes: whole 60-bp probe, lowest competitor level
Together with: Pho4 competitor, 0.05 µM
Reading: higher = stronger binding
Oligonucleotide | fluorescence intensity [a.u.]
CTGGGTCCGTTACGATTCGTGCTTTAAGAGGTTTAAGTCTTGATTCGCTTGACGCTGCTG | 61.4
GGTCCATTCGGCTTGCTGGTGGTACTGAGACAGATAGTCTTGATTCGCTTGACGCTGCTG | 61.2
CTTCTGTAAATTTGTCACTAGACTTGACGCGCCCCGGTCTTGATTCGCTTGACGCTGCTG | 93.9
ACCAGCTGTTCCCAGCACCTGACGATTACCGACCAGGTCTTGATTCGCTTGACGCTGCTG | 166
CATACCCAACCTTGTCACGGCACTTAAGATATTTGTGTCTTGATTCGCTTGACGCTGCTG | 101
AATCGCTCATTATCTTCGCTGCCATTTTCACCCTGAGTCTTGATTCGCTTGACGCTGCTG | 62.8
CCTTCTCCCTGCATACACATGATAACCATCTACACCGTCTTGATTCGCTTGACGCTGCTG | 148
AAGAAATTACCGTCGCTCGTGATGGGTTTGCAAAAAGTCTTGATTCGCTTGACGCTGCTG | 199

Further values, each from its own experiment
RPS6KB2: Ribosomal protein S6 kinase beta-2 (RPS6KB2, Homo sapiens, UniProt Q9UBS0)
UniProt Q9UBS0, sequence (whole entry, looked up): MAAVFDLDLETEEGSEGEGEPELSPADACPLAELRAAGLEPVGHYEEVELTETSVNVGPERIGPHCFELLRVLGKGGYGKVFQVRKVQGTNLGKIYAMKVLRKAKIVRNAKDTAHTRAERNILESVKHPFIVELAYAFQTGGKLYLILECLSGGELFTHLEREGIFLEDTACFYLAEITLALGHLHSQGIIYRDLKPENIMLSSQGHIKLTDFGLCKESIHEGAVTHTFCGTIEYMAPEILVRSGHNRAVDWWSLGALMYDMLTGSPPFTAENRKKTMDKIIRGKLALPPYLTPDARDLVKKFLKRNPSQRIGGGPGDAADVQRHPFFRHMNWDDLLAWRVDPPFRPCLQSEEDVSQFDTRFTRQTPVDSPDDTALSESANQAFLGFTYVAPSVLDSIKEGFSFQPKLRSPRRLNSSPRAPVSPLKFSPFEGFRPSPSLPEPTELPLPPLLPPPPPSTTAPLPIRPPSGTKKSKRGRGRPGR
SMILES | target | assay | setting | how to read | quantity | result
CSc1nc(-c2ccnc(N[C@@H](C)c3ccccc3)c2)c(-c2ccc(F)cc2)[nH]1 (racemic) | RPS6KB2 | enzyme activity, inhibitor | 0.5 µM | baseline: control | remaining activity | 92.8%
Cc1c(NC(=O)c2cc(C(N)=O)nc3cc(F)ccc23)c(C(F)(F)F)nn1Cc1ccc(C#N)cc1 | CDK16 (Homo sapiens, UniProt Q00536) | cell-free assay, competition with immobilised ligand | 1 µM | – | remaining binding | 100%
O=C1NC(=O)C(c2c[nH]c3ccccc23)=C1c1c[nH]c2ccccc12 | RPS6KB2 | enzyme activity, inhibitor | 0.5 µM | baseline: control | remaining activity | 94.6%
